Assay results collected from several papers.
Each line is one published result; not all experiments were run side by side. Numbers after ± are the reported error.
Sequence of UniProt P22736 (whole entry, looked up): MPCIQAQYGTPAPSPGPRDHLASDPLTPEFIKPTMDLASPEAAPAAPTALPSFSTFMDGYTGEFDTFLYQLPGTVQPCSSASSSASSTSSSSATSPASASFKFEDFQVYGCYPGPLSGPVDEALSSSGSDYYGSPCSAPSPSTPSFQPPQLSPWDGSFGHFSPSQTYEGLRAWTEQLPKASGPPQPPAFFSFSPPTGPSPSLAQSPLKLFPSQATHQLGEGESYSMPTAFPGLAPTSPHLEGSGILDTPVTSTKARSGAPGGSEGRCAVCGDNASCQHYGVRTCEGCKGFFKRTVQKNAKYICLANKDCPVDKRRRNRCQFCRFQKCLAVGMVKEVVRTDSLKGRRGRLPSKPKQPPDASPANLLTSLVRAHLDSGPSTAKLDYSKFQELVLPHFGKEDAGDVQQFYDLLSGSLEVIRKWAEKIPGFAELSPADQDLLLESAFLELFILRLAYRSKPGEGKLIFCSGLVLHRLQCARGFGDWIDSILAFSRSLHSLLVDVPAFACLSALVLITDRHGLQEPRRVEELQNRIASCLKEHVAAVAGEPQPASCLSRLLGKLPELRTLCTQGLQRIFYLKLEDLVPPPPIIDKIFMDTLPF
Sequence of UniProt Q460N5 (whole entry, looked up): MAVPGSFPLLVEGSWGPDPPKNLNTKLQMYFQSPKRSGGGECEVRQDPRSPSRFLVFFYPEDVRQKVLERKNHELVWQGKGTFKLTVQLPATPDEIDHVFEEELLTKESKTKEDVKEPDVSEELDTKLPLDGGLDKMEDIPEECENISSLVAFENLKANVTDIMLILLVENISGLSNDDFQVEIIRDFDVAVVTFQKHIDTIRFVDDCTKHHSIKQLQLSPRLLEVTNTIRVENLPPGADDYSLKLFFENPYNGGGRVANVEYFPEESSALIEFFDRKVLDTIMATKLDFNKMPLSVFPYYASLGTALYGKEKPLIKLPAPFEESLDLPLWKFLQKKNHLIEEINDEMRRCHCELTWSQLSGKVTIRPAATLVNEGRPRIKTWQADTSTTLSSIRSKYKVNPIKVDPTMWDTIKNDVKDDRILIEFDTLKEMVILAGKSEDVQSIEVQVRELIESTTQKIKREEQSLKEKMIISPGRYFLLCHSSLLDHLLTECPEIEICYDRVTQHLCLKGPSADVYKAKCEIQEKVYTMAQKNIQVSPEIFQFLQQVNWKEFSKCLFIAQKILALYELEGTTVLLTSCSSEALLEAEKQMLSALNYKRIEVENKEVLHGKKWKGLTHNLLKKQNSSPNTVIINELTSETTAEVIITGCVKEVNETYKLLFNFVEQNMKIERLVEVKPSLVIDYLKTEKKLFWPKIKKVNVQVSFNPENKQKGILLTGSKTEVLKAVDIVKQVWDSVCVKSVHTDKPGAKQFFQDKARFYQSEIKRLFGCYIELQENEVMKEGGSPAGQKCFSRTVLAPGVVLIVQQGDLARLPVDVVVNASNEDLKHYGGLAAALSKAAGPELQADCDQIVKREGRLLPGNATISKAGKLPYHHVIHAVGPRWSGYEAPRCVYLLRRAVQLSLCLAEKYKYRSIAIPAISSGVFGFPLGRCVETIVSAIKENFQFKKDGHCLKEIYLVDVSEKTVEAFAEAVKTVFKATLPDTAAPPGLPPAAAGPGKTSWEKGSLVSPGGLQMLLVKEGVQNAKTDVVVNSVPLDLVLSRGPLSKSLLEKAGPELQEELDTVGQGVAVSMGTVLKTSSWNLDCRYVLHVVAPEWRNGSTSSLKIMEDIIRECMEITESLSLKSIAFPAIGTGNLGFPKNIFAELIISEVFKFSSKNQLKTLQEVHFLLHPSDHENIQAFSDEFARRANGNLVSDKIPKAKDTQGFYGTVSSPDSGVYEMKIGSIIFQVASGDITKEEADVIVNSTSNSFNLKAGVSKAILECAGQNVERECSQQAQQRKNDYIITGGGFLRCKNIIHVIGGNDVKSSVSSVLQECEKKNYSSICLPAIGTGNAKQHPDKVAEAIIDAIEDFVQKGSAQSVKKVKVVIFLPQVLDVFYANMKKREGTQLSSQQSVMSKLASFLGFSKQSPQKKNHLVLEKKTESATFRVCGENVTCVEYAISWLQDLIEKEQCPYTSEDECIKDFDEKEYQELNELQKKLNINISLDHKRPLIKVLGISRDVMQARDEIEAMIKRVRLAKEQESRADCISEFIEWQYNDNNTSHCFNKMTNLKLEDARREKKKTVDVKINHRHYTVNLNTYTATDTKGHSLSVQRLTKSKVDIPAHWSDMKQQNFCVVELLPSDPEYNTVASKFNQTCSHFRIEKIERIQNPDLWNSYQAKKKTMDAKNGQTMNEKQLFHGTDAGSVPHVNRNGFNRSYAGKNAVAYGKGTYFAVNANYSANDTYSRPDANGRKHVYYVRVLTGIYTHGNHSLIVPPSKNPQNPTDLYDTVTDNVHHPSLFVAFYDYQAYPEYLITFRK
Sequence of UniProt Q9UBL9 (whole entry, unmodified, looked up): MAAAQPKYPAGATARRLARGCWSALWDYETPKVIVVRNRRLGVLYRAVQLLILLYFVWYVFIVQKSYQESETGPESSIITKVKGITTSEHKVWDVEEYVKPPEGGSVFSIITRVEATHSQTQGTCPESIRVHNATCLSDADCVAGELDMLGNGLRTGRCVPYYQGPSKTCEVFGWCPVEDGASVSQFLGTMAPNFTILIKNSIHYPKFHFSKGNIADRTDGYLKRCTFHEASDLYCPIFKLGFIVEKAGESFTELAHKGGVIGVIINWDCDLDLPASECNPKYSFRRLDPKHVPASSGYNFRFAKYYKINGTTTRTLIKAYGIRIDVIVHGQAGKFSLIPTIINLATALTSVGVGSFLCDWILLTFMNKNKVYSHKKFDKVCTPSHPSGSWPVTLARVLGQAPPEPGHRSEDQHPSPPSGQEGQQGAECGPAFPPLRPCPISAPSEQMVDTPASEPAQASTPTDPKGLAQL
Sequence of UniProt Q9UQD0 (whole entry, looked up): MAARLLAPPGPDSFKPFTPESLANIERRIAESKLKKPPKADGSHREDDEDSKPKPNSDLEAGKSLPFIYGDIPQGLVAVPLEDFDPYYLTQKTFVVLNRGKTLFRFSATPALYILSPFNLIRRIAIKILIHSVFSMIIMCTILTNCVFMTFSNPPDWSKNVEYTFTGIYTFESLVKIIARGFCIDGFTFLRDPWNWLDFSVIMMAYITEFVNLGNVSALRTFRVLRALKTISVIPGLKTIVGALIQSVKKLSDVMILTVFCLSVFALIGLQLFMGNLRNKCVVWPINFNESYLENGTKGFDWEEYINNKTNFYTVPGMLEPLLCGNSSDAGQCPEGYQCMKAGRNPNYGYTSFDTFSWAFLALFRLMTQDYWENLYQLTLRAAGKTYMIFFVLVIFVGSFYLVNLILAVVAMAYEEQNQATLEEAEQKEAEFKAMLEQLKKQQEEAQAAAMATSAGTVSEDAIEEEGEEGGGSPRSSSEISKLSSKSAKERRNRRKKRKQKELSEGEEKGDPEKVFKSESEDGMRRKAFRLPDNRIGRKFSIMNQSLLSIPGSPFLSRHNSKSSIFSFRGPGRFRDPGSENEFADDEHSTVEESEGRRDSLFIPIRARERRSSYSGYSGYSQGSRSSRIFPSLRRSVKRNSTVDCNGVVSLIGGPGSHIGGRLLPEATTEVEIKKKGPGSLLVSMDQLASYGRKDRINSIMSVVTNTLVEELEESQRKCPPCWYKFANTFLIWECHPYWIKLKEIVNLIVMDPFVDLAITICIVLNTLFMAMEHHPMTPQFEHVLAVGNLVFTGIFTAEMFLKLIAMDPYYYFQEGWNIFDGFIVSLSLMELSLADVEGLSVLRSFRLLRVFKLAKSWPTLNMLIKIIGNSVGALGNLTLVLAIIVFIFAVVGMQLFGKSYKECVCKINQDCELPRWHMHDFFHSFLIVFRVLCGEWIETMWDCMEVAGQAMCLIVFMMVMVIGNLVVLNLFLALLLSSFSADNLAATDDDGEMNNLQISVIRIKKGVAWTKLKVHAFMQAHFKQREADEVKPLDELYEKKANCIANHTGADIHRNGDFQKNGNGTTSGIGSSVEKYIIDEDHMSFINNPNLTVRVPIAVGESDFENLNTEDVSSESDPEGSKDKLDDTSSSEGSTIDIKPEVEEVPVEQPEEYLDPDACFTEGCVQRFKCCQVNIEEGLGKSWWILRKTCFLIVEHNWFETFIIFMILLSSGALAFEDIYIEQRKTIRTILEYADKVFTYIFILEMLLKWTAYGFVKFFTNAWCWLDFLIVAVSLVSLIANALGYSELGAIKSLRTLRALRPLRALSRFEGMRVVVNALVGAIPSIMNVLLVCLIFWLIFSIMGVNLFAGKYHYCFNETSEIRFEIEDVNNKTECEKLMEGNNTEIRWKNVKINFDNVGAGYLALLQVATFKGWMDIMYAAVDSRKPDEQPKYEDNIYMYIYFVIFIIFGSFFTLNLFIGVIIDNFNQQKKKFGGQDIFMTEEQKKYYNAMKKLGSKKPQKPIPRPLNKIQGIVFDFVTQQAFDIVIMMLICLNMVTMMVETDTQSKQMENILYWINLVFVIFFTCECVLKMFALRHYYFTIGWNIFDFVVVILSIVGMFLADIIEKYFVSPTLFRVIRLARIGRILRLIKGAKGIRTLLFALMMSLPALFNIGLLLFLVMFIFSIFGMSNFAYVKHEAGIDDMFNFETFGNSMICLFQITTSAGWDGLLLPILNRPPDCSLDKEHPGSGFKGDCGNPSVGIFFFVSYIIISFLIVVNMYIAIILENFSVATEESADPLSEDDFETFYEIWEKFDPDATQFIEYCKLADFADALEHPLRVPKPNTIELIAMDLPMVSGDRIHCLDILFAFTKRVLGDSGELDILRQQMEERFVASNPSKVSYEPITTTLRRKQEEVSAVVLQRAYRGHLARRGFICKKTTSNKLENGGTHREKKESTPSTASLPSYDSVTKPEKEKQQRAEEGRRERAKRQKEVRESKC
Sequence of UniProt P00441 (whole entry, unmodified, looked up): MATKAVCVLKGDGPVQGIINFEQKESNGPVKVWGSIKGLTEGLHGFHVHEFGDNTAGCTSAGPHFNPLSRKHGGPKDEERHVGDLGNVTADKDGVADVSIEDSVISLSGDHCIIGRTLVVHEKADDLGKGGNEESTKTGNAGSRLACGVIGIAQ

`CC(=O)N[C@H](C(=O)N[C@@H](CC(N)=O)C(=O)N[C@@H](CCCCN)C(=O)N1CCC[C@H]1C(=O)N[C@@H](CC(C)C)C(=O)N1CCC[C@H]1C(=O)N1CCC[C@H]1C(=O)N[C@@H](CC(C)C)C(=O)N1CCC[C@H]1C(=O)N[C@H](C(=O)N[C@@H](C)C(N)=O)C(C)C)C(C)C` gave a peak area of 65 ± 1% (High osmolarity signaling protein SHO1, SH3 domain (SHO1, Saccharomyces cerevisiae, UniProt P40073); ligand binding, FTIR spectroscopy, measured: asymmetric stretch band B; pH 7.0, SHO1 complex, together with: 4 mM peptide).
`NC(=O)c1ccc[n+]([C@@H]2O[C@H](COP(=O)([O-])OP(=O)(O)OC[C@H]3O[C@@H](n4cnc5c(NCCNC(=O)CCCCCNC(=O)CCCCCNC(=O)CCCC[C@@H]6SC[C@@H]7NC(=O)N[C@@H]76)ncnc54)[C@H](O)[C@@H]3O)[C@@H](O)[C@H]2O)c1` gave a Km of 6 µM (PARP14 (Homo sapiens, UniProt Q460N5); auto-ADP-ribosylation, substrate, DELFIA).
With `Nc1ncnc2c1ncn2[C@@H]1O[C@H](COP(=O)(O)OP(=O)(O)O)[C@@H](O)[C@H]1O` the Km was 13 ± 1 µM (CKMT1A (Homo sapiens, UniProt P12532, E265Q); substrate, Kinase-Glo luminescence; pH 7.0, reverse reaction, E227Q mutant, together with: second substrate in excess).
`O=C(CCCc1ccccc1)C(=O)NCCc1ccc(Oc2ccc(C(F)(F)F)cn2)cc1`: “probe-enriched protein abundance” 92200 a.u. (Carboxylesterase 1F (Ces1f, Mus musculus, UniProt Q91WU0); inhibitor, measured: CES1F; mouse, BAT cytosol proteome; 10 µM; reference: DMSO, lower = stronger inhibition).
For `Nc1ncnc2c1ncn2[C@@H]1O[C@H](COP(=O)(O)OP(=O)(O)OP(=O)(O)O)[C@@H](O)[C@H]1O`, the Hill coefficient was 1.8 ± 0.1 (P2X purinoceptor 2 (P2RX2, Homo sapiens, UniProt Q9UBL9, R130E); channel activation, agonist; transfected HEK293 cells; divalent-free solution, together with: 10 mM EDTA).
For `CC(=O)Nc1ccc(Oc2ccc3c(c2)C(=O)N(c2cc(C)ccc2C)C3=O)cc1`, the delta Tm was 0.6 °C (Sodium channel protein type 8 subunit alpha, C-terminal domain (SCN8A, Homo sapiens, UniProt Q9UQD0); binding, protein thermal shift; 25 µM).
`Cc1cc2c(cc1N1C(=O)c3cccc4c(Cl)ccc(c34)C1=O)n(C)c(=O)n2C` gave a thermal shift of 0.2 °C (Protein polybromo-1, bromodomain 3 (PBRM1, Homo sapiens, UniProt Q86U86); binding, thermal shift; 10 µM; higher = stronger binding).
`c1coc(-c2n[nH]cc2-c2ccnc3ccccc23)c1` — result for “log2 fold change”: -0.78 (Serine/threonine-protein kinase CST20 (CST20, Candida albicans, UniProt P0CY24); kinase binding, MIB/MS competition; Candida albicans lysate; 10 µM; reference: DMSO, negative = stronger binding).
For `[O-][S+]1CCCCS1` (stereo not drawn), “SOD1 monomer fraction” read 16.5% (SOD1 (Homo sapiens, UniProt P00441, G94A); LC-MS; brain homogenate; 500 µM, 1 h, 37 °C).
`CC1(C)CC2(C)OC(=O)NC2(C)c2ccccc21` (stereo not drawn) has a fold enrichment of 1.03 (ATP-dependent RNA helicase DDX1 (Homo sapiens, UniProt Q92499); binding, affinity selection mass spectrometry; reference: other proteins in batch).
For `CCCCCCCCOC(=O)NS(=O)(=O)Nc1ccc(-c2cc3ccccc3[nH]2)cc1OC`, the kcat was 4.07 ± 0.61 s⁻¹ (Polyunsaturated fatty acid lipoxygenase ALOX15 (Oryctolagus cuniculus, UniProt P12530); 30 µM, together with: linoleic acid).
`CCCCCCCC(=O)c1cc(OC)c(OC)c(OC)c1CC(=O)OCC` gave an activation of 0.73 fold (Nuclear receptor subfamily 4 group A member 1 (NR4A1, Homo sapiens, UniProt P22736); reporter gene, NBRE reporter full-length; 10 µM; reference: vehicle).

For quick reference, copied from above:
`NC(=O)c1ccc[n+]([C@@H]2O[C@H](COP(=O)([O-])OP(=O)(O)OC[C@H]3O[C@@H](n4cnc5c(NCCNC(=O)CCCCCNC(=O)CCCCCNC(=O)CCCC[C@@H]6SC[C@@H]7NC(=O)N[C@@H]76)ncnc54)[C@H](O)[C@@H]3O)[C@@H](O)[C@H]2O)c1` gave a Km of 6 µM (PARP14 (Homo sapiens, UniProt Q460N5); auto-ADP-ribosylation, substrate, DELFIA).
`CC1(C)CC2(C)OC(=O)NC2(C)c2ccccc21` (stereo not drawn) has a fold enrichment of 1.03 (ATP-dependent RNA helicase DDX1 (Homo sapiens, UniProt Q92499); binding, affinity selection mass spectrometry; reference: other proteins in batch).
